Assay results of several laboratories.
Each numbered part is a random draw from the data of one study; scales do not carry over between parts. Substitutions count along the parent as printed.

Series 1
Target: ABI1, truncated, D143A, DHFR fusion (Arabidopsis thaliana)
Method: DHFR PCA, deep sequencing
Medium: yeast
Notes: methotrexate growth selection, single substitutions
Together with: (+)-ABA 0.39 µM
Baseline: wild-type fitted maximum
Direction: higher = stronger binding
Starting sequence: PYL1, truncated, DHFR fusion (Arabidopsis thaliana); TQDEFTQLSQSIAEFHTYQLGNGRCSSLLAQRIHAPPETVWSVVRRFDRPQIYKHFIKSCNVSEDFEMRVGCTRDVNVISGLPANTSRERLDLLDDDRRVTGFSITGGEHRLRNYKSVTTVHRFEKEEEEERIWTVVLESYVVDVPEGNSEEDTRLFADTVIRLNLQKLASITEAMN
Variant | relative binding score
D65E | 21.6%
L156N | -18.7%
S59N | 30.3%
I33V | 13.5%
Q31I | 2.54%
E130G | 50.1%
S87I | 52.9%
S26R | 0.338%
C72S | 41.1%
R123H | 52.8%
Q19W | -1.22%
E38D | 42%
E109W | -11.7%
T135L | -7.21%
D97K | 48.3%
W134G | 34.3%

Series 2
Target: CREBL2, bZIP domain (human)
Method: DHFR protein complementation
Medium: yeast
Notes: single substitutions, most at no-binding floor
Baseline: wild-type JUN-FOS pair
Direction: higher = stronger binding
Starting sequence: JUN, bZIP domain (human); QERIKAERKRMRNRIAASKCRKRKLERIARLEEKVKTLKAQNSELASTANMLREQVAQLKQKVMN; partner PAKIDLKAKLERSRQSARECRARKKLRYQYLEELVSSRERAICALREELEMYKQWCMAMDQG
Variant | binding fitness
T37W | -1.59 natural log
L31F | -1.52 natural log
T37L | -1.4 natural log
L59W | -1.61 natural log
K36H | -1.44 natural log
Q55R | -1.52 natural log
S47E | -1.56 natural log
S43G | -1.4 natural log
L38V | -1.41 natural log
E54P | -1.54 natural log
L31W | -1.64 natural log
Q41D | -1.4 natural log
L52W | -1.46 natural log
E54A | -1.56 natural log
E33M | -1.56 natural log
T37N | -1.2 natural log
V35P | -1.51 natural log

Series 3
Target: Prothrombin, mature alpha-thrombin (F2, Homo sapiens, UniProt P00734)
Method: aptamer microarray, sandwich
Form: DNA with 2'F-ANA
Medium: in vitro
Concentration: 200 nM
Notes: whole 15-mer aptamer, many near background
Together with: Cy3 exosite-II aptamer, 400 nM
Direction: higher = stronger binding
Sequence: GGTTGGTGTGGTTGG
Modification | mean fluorescence intensity [a.u.]
2'F-ANA at 1 2 4 5 6 8 9 11 13 15 | 52
2'F-ANA at 1 3 7 9 11 12 13 | 377
2'F-ANA at 2 7 8 9 10 11 15 | 174
2'F-ANA at 3 6 8 11 15 | 876
2'F-ANA at 1 2 3 6 8 11 13 | 165
2'F-ANA at 2 3 4 5 7 10 13 14 15 | 48.4
2'F-ANA at 3 4 5 6 8 9 10 14 | 46.3
2'F-ANA at 1 3 5 7 11 13 | 50.5
2'F-ANA at 1 2 3 5 6 7 12 13 14 15 | 320
2'F-ANA at 1 2 3 5 6 8 9 10 11 | 99.2
2'F-ANA at 1 3 7 8 9 10 12 14 | 67.1
2'F-ANA at 2 3 4 5 7 10 13 | 122
2'F-ANA at 2 3 5 7 8 9 12 13 | 184
2'F-ANA at 1 2 3 4 8 10 11 12 15 | 73.9
2'F-ANA at 1 3 4 6 10 11 12 13 15 | 63.5
2'F-ANA at 3 5 9 13 15 | 94
2'F-ANA at 1 2 3 4 5 6 7 8 11 12 14 15 | 47.5
2'F-ANA at 1 2 3 4 6 7 9 13 15 | 107
2'F-ANA at 2 3 8 10 11 12 13 14 | 264
2'F-ANA at 6 7 9 11 14 15 | 143
2'F-ANA at 2 5 7 8 10 13 15 | 47.3
2'F-ANA at 3 6 8 9 10 12 | 601
2'F-ANA at 1 2 4 7 11 12 14 15 | 58.5
2'F-ANA at 3 6 7 12 14 15 | 640

Series 4
Target: Ras GTPase-activating protein-binding protein 1, full length (G3BP1, Homo sapiens, UniProt Q13283)
Chain of UniProt Q13283 (whole entry, looked up): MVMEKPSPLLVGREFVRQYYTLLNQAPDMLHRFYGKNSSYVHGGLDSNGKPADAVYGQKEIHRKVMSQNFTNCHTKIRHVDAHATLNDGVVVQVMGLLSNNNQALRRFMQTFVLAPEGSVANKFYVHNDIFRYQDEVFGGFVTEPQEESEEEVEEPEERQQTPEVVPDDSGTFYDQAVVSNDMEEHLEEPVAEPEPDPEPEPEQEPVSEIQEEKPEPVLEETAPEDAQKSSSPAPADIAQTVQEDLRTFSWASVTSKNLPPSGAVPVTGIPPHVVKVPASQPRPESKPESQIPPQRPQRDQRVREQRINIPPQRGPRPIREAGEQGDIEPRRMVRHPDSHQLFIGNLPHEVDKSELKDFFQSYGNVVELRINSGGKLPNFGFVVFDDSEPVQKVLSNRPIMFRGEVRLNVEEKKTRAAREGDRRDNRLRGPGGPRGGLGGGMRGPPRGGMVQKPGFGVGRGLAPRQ
Method: RNA Bind-n-Seq
Form: RNA
Medium: in vitro
Concentration: 200 nM
Notes: whole 134-nt RNA, ends assumed
Together with: 150 mM KCl
Baseline: input library
Direction: higher = stronger binding
Constant ends, left off below: GGGAGUUCUACAGUCCGACGAUC … UGGAAUUCUCGGGUGUCAAGG
Sequence | log2 enrichment
AGUCCUGUGCUACACAUCGUAUGUACCGAAUCGGGCCCCGGGCCCCGGGCCCCGGGGAAAGUAUUAUGUUACGCCGUUCGGAUCUGCACU | -1.18
CAAGUCCUGUGCUACACAUCGUAUGUACCGAAUCGGAAAGGGAAAGGGGAAAGGGGAAAGUAUUAUGUUACGCCGUUCGGAUCUGCACUU | -0.132
AGUCCUGUGCUACACAUCGUAUGUACCGAAUCGGGGCCCCGGCCCCGGGGCCCCGGGAAAGUAUUAUGUUACGCCGUUCGGAUCUGCACU | -1.46
UCAAGUCCUGUGCUACACAUCGUAUGUACCGAAUCGGAGGUUUGGUUUUUUUGGAAAGUAUUAUGUUACGCCGUUCGGAUCUGCACUUCC | -0.673
AAGUCCUGUGCUACACAUCGUAUGUACCGAAUCGGGUGGGUUUGGGUUUUUUUGGGAAAGUAUUAUGUUACGCCGUUCGGAUCUGCACUU | 0.0417
AAGUCCUGUGCUACACAUCGUAUGUACCGAAUCGGGGCCCCGGGCCCCGGCCCCGGGAAAGUAUUAUGUUACGCCGUUCGGAUCUGCACU | -0.815
GUCCUGUGCUACACAUCGUAUGUACCGAAUCGGUUUUUGGGUUUUUGGGUUUUUGGGGAAAGUAUUAUGUUACGCCGUUCGGAUCUGCAC | -0.587
UUUGUAGAGCAGCCCGACGGCCAUGGAGGCUGAAGAGACGAUGGAAUGCCUUCAGGAGUUCCCUGAACAUCAUAAAAUGAUCCUCGACCG | -0.354
GUCCUGUGCUACACAUCGUAUGUACCGAAUCGGGAAAAAGGGUUUGGGAAAAAAAGGGAAAGUAUUAUGUUACGCCGUUCGGAUCUGCAC | -0.767
UCAAGUCCUGUGCUACACAUCGUAUGUACCGAAUCGGGGUUUGGUUUGGUUUGGGAAAGUAUUAUGUUACGCCGUUCGGAUCUGCACUUC | -0.417
ACCAUGCAGGUGGGCAUCUUUGGGAAGUGGGGCAAGGGGGGGAUAGGGAGGGGGGUAACACUUUGGGAACAGGUGGUCCAAAGUCGUUUC | 1.22
UCUCCACCUGCUGAGCUCCCCAGUUUGAGGCGGAGCACACGCCAAAAGACCACGGGCUCCUGUGCUAGUACCAGGUAAUUUGUUUUUUUU | 0.556
AGUCCUGUGCUACACAUCGUAUGUACCGAAUCGGGUUUGGGAAAAAGGGAAAAAGGGAAAGUAUUAUGUUACGCCGUUCGGAUCUGCACU | -0.243
UAACUUUAGAGGAGGAUCUGAUGGAUAUGGCAGUGGACGUGGAUUUGGGGAUGGCUAUAAUGGGUAUGGAGGAGGACCGGGAGGUGGCAA | 0.248

Series 5
Target: CCND3, cyclin fold, Cln2 fusion (human)
Method: yeast growth competition, sequencing
Medium: yeast
Notes: weak parent motif
Baseline: not given
Direction: higher = stronger binding
Starting sequence: PKN2 docking peptide (human); VSAVQKLDFSDTM; partner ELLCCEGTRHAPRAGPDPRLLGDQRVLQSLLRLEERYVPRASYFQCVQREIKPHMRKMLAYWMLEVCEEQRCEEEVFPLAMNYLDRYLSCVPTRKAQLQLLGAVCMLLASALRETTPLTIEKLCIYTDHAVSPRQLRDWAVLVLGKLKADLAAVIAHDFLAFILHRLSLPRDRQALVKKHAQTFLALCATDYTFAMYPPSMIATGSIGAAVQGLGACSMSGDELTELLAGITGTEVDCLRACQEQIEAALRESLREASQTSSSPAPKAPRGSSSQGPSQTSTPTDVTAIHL
Variant | normalised enrichment score
VCAVQKLDFSDTM [S2C] | 0.147
VSAVQKHDFSDTM [L7H] | 0.114
VSAVQILDFSDTM [K6I] | 0.0748
VSAVQKLDFSETM [D11E] | 0.107
VSWVQKLDFSDTM [A3W] | 0.148
VSAVQKTDFSDTM [L7T] | 0.0581
VSAVQKLDFSDTV [M13V] | 0.122
VSPVQKLDFSDTM [A3P] | 0.129
VSAVQKLDFSDAM [T12A] | 0.149
VSAVQKLSFSDTM [D8S] | 0.147
VSAVQKYDFSDTM [L7Y] | 0.129
VSAVQKLDESDTM [F9E] | 0.118
VSAVQKLDFQDTM [S10Q] | 0.117
VSAVQHLDFSDTM [K6H] | 0.11
FSAVQKLDFSDTM [V1F] | 0.142
VSAVQKLDFRDTM [S10R] | 0.129
VSAVQKLDFSDHM [T12H] | 0.156
VSLVQKLDFSDTM [A3L] | 0.092
VSAKQKLDFSDTM [V4K] | 0.02
VSAVQKKDFSDTM [L7K] | 0.0649
VSAVQKLEFSDTM [D8E] | 0.0891
VSAVQKLDTSDTM [F9T] | 0.0702
VSAVQKLDFSWTM [D11W] | 0.131
VSAVQKLDFSSTM [D11S] | 0.142
VSAVQKLNFSDTM [D8N] | 0.136

Other studies, line by line
Substance | target | test | test system | setting | how to read | quantity | result
PhoQ, residues 284 288 289 292 302 303 SCKMEA | PhoP, residues 12 14 15 18 19 GQALL (Escherichia coli, UniProt P23836) | Sort-seq, measured: YFP reporter | E. coli | PhoQ-PhoP variant library, together with: 10 µM Mg2+ | baseline: high Mg2+ state, higher = stronger signaling | fold induction | 3.33

Some of these lines once more (series 1):
Variant | relative binding score
S26R | 0.338%
C72S | 41.1%
W134G | 34.3%
D65E | 21.6%
Q31I | 2.54%
R123H | 52.8%
E130G | 50.1%
S59N | 30.3%
D97K | 48.3%
T135L | -7.21%
E109W | -11.7%
